Experimental data collected from several papers.
Every numbered part comes from another study and shows a few of its results, in no order. Positions count from the first letter of the parent shown.

Study 1 — method: protein-binding microarray; molecule type: double-stranded DNA, one strand shown; sample: in vitro; concentration: not given; direction: higher = stronger binding
Target: Protein C-ets-1 (ETS1, Homo sapiens, UniProt P14921, residues 1-441, Y397A, full length assumed)
Notes: k-mer, scored over probes, only values ≥0.25
Residues (chain): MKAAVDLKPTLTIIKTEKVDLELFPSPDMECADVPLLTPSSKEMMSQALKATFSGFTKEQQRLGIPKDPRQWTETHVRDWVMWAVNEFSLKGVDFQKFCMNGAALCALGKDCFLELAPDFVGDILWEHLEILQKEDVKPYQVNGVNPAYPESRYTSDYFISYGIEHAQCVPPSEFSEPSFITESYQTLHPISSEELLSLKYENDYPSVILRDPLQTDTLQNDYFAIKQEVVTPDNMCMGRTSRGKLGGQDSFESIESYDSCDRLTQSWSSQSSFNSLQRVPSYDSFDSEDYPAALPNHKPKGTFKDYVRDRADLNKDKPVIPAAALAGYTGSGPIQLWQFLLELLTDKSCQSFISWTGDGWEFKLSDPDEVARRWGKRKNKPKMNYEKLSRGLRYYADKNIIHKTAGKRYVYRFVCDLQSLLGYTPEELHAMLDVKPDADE
Sequence	E-score
ACGGATAT	0.282
ATATACAA	0.261
GCAAACGA	0.316
ATCCGGAA	0.267
TTACAAAA	0.325
GCAAAACC	0.254
CCGGAAAC	0.434
GTGTCAAA	0.279
CAACAAAC	0.252
TTCCGGAA	0.485
AATGGCAA	0.285
CAATCATA	0.268
TGCCAAAA	0.35
CCGCACAG	0.266
ACATAATG	0.299
CGACACGA	0.305
CAAATCGG	0.306
CACATCCG	0.455
GGTGACAA	0.301
GTTAACAA	0.268
CATTGCAG	0.273
AGGGCGGG	0.346
GTCGACAA	0.323

Study 2 — method: protein binding microarray; molecule type: double-stranded DNA, one strand shown; sample: in vitro; concentration: not given; baseline: not given; direction: higher = stronger binding
Target: Histone acetyltransferase KAT6A, winged helix 2, GST fusion (KAT6A, Homo sapiens, UniProt Q92794, residues 85-181)
Notes: 8-mer, flanks averaged, mean of 2 arrays, mostly near background
Residues (chain): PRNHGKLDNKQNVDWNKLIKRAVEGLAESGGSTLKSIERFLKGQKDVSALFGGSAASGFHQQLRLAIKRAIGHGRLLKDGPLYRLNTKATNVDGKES
Sequence	E-score
ACCCTTAT	-0.0975
ATGGTCCC	-0.141
AAGTGGAA	-0.0332
CCAGGCGA	0.166
CGCTATCA	0.175
ATCTTGAG	-0.128
ATGCAGTG	0.0975
CTCACTTA	-0.0457
CGCGCATC	0.113
CTCACTGC	0.0387
CCATGAGA	-0.00406
ATTCTCAG	0.0283
CGCTTCAC	0.0799
CGCGGATA	0.156
ATCCCGAT	-0.0398
ATACGGAG	-0.13
GAGTGGCA	-0.00613
AATTGGCG	-0.0748
CTCACACA	0.0355
GGGGTAAC	-0.0849

Study 3 — method: RNA Bind-n-Seq; molecule type: RNA; sample: in vitro; concentration: 365 nM; baseline: no-protein control; direction: higher = stronger binding
Target: RNA binding protein fox-1 homolog 2, RRM domain, GST-SBP tag (RBFOX2, Homo sapiens, UniProt O43251-10, residues 100-194)
Notes: natural RNA segment, single round, ends assumed
Shared flanks, not repeated: GGGAGUUCUACAGUCCGACGAUC … UGGAAUUCUCGGGUGCCAA
Residues (chain): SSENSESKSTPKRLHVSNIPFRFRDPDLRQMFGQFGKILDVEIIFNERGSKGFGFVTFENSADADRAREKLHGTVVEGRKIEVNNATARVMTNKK
Sequence	RBNS enrichment (R)
AGUGGGCUUUGAAGUGUGUGCUGCUUACUCCUUUCAUCUUUCUCCCCGCUUCCCCAGUCUUUAAACAUUGGACGCUAUUUACUCAGCUACCCAGUAGAGCUUGAAGCUGA	0.565
UCCAAGGCAGAAGUGGCCCAUGAGUGGCCCCAGAGCAGAGGUGCCCCAGGCAGUGCAGCUCCCUGGUGGGUUGGUAGAGGGACCUCAGCUUAAGGAACUGCCCUGCCACU	0.752
CUUGUUCUCUACUGUUCACCGGGACCUGGCUGGCAAAUGACUUAGCUAUUAGUAUAUUUAAAAACUGUUCAAAAGCAAAAGAGAAGGAACAGGAAUGAAAGGAAACCUUC	0.59
GGAGCAGAAACAUAAUCAAUCCCUCCCUGAGAUAAAAUGUGGGCAUGCACAUUGCUUUGGAGUCAGUAUUCAGCUGUAAGUGUAGUAUUGUUUUAUGGCUGAAAUAGAAA	18.7
CUCAGCAUUUACUUUGUUUCUUUUGCUUAGGAAAUUGCUCAUAAUCUGGUUAUAAUUUUGGUCCAAAUUCUUUAUUCUUCCUUGAGCUAAGCAGAAUAAUGGAAUAUAAU	0.528
UAUUUAAUUAGUCAAAUCAAUUUUUAAAUCAUAACUCCUUAAUCUCAUAAGAAGCAAUAAAUGCAUAAAGCAUUAUAUUAAAAUACCAGGGUUACUUAUGUCAUUGACAG	0.498
CUGCAUGACCUUGGGCAAACCCUUGCCCUUUCAAGCCAUCAGCUCCUGCCUCUCUGCCAUGAGGGCUUUGGAUCAGAUUCCUCUUCUCGCCAGGAUGAGGACACGCACUG	0.816
CCAGUCUGAUCUACAUUGUGAGUUCCAAGACAGCCAAAACUACAUAAUGAGACCCUGUCUCAAAAAAAGAAAAAAAAAUUUUUUGAAAUUUAGUAGGUUUUCACAAUUUU	0.717
CAGUCCUAAAGGCUUCUGUGAAGGAAACCACAGAAAGUGAAAGAAGCAGAAUUAGAAAGAGCAUUCCCCACUUGCAGUGUCCUUCUCACAGGGAAGUCAGACGGUGGAAG	0.309
UUUCUGCGUUGCCCUCCAGAUCCUGAGGUGGGCCGUGAGACGACUUGCUUUAAACUCUGUUCAAUCCCCAGGCUUUCUGAGUCCGCUCUACCUUUUCUGGGUGAUCUUGU	0.325
UUAUUCUUAUCUUUCCACCCAAACACCUACACAACGUUUAGGCUUCCUGUAAGGUUUGAAUGAGACAGAUGUACUCUGAAGGCUGGUGGUAAAUGUGUUUGAUGACCAGA	0.664
GUUUCUGCCUGCCUGAAAGAGAGGGCUCUGGGGAUGGAGAUGAGAAACAACACGCUCUCCUUCAGACAAUGAGGCAUUCUGUCCUCCUGCUGCCAUUCUUCAUCUCCACU	0.631

Study 4 — method: DHFR PCA, deep sequencing; sample: yeast; together with: (+)-ABA 4.8 µM; baseline: wild-type fitted maximum; direction: higher = stronger binding
Target: ABI1, truncated, D143A, DHFR fusion (Arabidopsis thaliana)
Notes: methotrexate growth selection, single substitutions
Starting sequence: PYL1, truncated, DHFR fusion (Arabidopsis thaliana); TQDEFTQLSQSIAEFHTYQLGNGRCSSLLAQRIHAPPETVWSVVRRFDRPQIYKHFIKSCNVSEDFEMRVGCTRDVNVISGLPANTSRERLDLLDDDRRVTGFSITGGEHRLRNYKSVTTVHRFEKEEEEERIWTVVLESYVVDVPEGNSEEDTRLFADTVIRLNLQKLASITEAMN
Change	relative binding score [%]
K116W	1.21
S27V	1.32
D144L	-2.87
N77I	75.9
N61E	79.3
I33L	0.532
Q19A	71.4
A170L	-5.41
I133H	76.2
N22Y	69.3
R155M	43.6
L169G	-5.11
E14N	30.4
F5Y	62.6

Study 5 — target: ATF2, bZIP domain (human); method: DHFR protein complementation; sample: yeast; baseline: wild-type JUN-FOS pair; direction: higher = stronger binding
Notes: single substitutions, most at no-binding floor
Starting sequence: JUN, bZIP domain (human); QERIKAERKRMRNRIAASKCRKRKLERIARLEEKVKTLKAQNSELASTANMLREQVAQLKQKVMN; partner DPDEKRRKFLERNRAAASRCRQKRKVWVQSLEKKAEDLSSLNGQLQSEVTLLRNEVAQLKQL
Change	binding fitness
S43R	-1.27 natural log
A46W	-1.25 natural log
L45K	-1.52 natural log
V35I	-1.17 natural log
N42T	-1.5 natural log
L31W	-1.41 natural log
N42G	-1.48 natural log
K36F	-1.32 natural log
K36V	-1.4 natural log
L45D	-1.52 natural log
E32A	-1.27 natural log
T48M	-1.41 natural log
L45T	-1.55 natural log
A29G	-1.35 natural log
R30K	-1.48 natural log
A57S	-1.42 natural log
E54S	-1.45 natural log
T37Y	-1.28 natural log

Study 6 — target: CCNB1, cyclin fold, Cln2 fusion (human); method: yeast growth competition, sequencing; sample: yeast; notes: strong parent motif; baseline: not given; direction: higher = stronger binding
Starting sequence: MICAL3 docking peptide (human); LQLRRQLSFSEDS; partner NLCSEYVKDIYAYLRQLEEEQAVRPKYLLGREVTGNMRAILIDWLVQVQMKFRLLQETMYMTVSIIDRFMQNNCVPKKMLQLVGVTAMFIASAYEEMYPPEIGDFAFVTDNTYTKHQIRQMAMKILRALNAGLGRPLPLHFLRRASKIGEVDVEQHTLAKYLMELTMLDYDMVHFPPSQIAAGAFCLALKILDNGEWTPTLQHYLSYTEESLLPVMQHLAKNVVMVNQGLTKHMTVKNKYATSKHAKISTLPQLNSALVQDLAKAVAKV
Change	normalised enrichment score
S10C	3.5
R5L	0.445
S10Y	2.72
S8F	1.91
Q2N	4.91
Q6L	0.82
Q2G	4.81
E11N	3.25
L3S	0.612
L3R	0.57
Q2R	5
F9L	0.376
D12F	3.35
S10I	2.04
L3G	0.607
E11M	2.69
F9M	0.528
Q6C	5.32
S10F	1.48
F9C	0.294
R5S	0.161
Q6N	2.06
L7S	-0.268
F9K	0.0723
L7T	0.0711

Study 7 — method: RNA Bind-n-Seq; molecule type: RNA; sample: in vitro; concentration: not given; notes: RNA with constant flanks, ends assumed; baseline: input RNA pool; direction: higher = stronger binding
Target: RING finger protein unkempt homolog, zinc fingers 1-6, GST-SBP tag (UNK, Homo sapiens, UniProt Q9C0B0, residues 30-357)
UniProt Q9C0B0, sequence (30-357, looked up): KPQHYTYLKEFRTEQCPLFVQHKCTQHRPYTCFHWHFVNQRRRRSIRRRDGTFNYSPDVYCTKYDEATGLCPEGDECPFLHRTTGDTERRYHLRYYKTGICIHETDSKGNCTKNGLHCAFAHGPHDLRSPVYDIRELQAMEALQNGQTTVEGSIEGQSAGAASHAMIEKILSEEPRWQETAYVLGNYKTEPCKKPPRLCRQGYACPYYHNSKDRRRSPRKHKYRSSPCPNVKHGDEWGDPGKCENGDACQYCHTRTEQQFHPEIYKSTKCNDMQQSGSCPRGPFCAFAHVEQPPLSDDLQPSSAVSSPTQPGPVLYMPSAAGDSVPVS
Shared flanks, not repeated: GGGAGUUCUACAGUCCGACGAUC … CAACAGAGGAUUGAGCAUCA
Sequence	bound/input enrichment [ratio]
GCACCCAGGUCCUAUAGGAUAGCACCUAGGCCAUACAGGUUAGCACCUAGACCCUUGAUGUCCGCAUCUAGACGUUCUAUGAUGAUGUCCUAUGCUGCAGAACGUUCCAUGAUGUCAUCU	0.184
AACUCAAACCCAGCCCUCAAUGACAACCUAGAGAAGGGACUCCUGAAAGCCCUGAAGGUUCCCGACAAUUACCUGACAUCCCCCCUCCCAGAAGAAGUGGAUGAAACCAGCGCCGAAGAU	0.53
UAAGAAGAAAAACAAGUUAUAGCACUUUCAAUUUUUUUUUUUUUUUUAAAAAAAGGUUUACCGCUUUUUCUUUUCCCAUGUCACAAUGUCCACUUCCUAAGAAGGGUUUAAAAUACUAUG	0.679
AAAGCCAUCUUUUCCACAUUUUCUGUAAAUAAUGGAUAAUCAUUUUAAAAAUUUUUAUUUUCCGUGCUGUUUUAACAAUGUAGAUAGAUCAUAAAUGUACUUGCUGAAUUCAAUCAUUUU	2.49
UUAAAAAAGAAUCCUUUGGGCCAGUGAAUAAAACAGGGCAAAUUUUAGUUAGAAAUUCCGACCGAAAAUAUACACUUGCAACUUUCCUAGUGUCUCUGAGUCUGCAGCAGUCACUAUAGC	0.526
CAUUCUGAAUUUCAUAUAGUAUAAGUUAGACAUUGCUUAAUCCUUUUUUAAAUGUAUUUACACCGACACGAACACUCAAAUUGUUGGAUUUUUAAAACUAUAUCUGACAUAAUUUUUUUC	12.7
AAACCCCAGGCUGUUUCUUCAUUAAGUUCUAGUCAUUCCAGGUCUCAUGGGAAUGAUCACCACCGCAAGGAACAUCAGCGCUCCAAAUCACCUCGGGACCCUGAUGCCAACUGGGAUUCU	0.104
UAAAUACAUAUAUAUUUGCUUGACGAAUCACCAAGCACAUUGGUGAGAGGGUCUUUUCCUACCGAAUUCACUCAUCCGUUUUGUUGUGUUGUCCUGAGCUUCCCAAUGUUGAGGUCUCUA	0.194
GUUUUAAAGAAGGCACUUGAAAUUACAAAAGCAAGUCAUGUGACCCCUCAGCCAGAAGACCGUUGGAUCCCUUUACUUAUUAAUGCCAUUGAUCAUUGCAUGAAUAGAAUCAAGGAGCUC	0.19
UUUAAGACUUUAUAUUGCUUUUCAAACAAAGAAAGCCCUAACCAAAACAAUACUACCCACUCCGAUAUUGCUGCAGUUCAAGGUUUUUCAGUCAUCUUGGACUUCUUGUAUUCUGGUAAC	0.226
AGCAGACCAAAAAUUCUGAUGACCGCAUCUAGAUUAUUUUUUUAUAAAAAUGAUUUUCACUACCGCUAUGUUACGCUAAGCUACUGUCCAAUCUCUUGUGAUGUGUAACUUUUACAUGUG	2.27

A few entries again (study 6):
Change	normalised enrichment score
L7S	-0.268
L7T	0.0711
S10C	3.5
S10I	2.04
Q6N	2.06
L3S	0.612
E11N	3.25
Q6L	0.82
S10F	1.48
E11M	2.69
Q6C	5.32
Q2G	4.81
D12F	3.35
F9L	0.376
S8F	1.91
R5S	0.161
F9M	0.528
F9C	0.294
Q2N	4.91
F9K	0.0723
